# Published values collected from several papers.
# Numbered parts are unrelated; each lists some results of a single study. Values joined by “and” are separate records of one study, mostly repeats; a detail may differ.
# UniProt P29323, sequence (whole entry, looked up): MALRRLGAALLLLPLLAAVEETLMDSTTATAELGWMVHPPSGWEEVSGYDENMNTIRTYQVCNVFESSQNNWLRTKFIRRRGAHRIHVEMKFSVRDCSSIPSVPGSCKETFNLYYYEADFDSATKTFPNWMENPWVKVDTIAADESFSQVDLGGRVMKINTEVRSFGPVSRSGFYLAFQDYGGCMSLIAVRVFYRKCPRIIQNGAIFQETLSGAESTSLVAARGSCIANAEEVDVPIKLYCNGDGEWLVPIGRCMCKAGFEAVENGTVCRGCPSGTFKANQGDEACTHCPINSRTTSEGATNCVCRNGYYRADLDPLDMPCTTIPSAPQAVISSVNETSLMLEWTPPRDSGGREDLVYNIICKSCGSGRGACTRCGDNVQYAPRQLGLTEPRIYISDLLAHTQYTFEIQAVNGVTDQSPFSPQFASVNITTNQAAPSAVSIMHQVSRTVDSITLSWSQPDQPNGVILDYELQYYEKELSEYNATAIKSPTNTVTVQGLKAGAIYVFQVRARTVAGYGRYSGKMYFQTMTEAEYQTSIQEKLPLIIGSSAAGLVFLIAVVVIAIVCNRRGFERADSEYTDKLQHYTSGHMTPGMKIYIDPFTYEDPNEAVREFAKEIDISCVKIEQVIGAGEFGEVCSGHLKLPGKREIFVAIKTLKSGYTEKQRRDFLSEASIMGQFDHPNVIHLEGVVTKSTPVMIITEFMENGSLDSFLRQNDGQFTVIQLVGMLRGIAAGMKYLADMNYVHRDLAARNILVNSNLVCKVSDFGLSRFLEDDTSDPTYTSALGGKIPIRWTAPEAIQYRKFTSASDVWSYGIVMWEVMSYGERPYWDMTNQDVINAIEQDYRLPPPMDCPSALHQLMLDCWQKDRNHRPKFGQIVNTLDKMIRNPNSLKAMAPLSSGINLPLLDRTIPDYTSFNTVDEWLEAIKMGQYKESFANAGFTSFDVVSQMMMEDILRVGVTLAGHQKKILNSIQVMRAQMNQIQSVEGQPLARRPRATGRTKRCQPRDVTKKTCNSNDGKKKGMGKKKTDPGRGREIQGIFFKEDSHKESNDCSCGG
# UniProt Q15746, sequence (whole entry, looked up): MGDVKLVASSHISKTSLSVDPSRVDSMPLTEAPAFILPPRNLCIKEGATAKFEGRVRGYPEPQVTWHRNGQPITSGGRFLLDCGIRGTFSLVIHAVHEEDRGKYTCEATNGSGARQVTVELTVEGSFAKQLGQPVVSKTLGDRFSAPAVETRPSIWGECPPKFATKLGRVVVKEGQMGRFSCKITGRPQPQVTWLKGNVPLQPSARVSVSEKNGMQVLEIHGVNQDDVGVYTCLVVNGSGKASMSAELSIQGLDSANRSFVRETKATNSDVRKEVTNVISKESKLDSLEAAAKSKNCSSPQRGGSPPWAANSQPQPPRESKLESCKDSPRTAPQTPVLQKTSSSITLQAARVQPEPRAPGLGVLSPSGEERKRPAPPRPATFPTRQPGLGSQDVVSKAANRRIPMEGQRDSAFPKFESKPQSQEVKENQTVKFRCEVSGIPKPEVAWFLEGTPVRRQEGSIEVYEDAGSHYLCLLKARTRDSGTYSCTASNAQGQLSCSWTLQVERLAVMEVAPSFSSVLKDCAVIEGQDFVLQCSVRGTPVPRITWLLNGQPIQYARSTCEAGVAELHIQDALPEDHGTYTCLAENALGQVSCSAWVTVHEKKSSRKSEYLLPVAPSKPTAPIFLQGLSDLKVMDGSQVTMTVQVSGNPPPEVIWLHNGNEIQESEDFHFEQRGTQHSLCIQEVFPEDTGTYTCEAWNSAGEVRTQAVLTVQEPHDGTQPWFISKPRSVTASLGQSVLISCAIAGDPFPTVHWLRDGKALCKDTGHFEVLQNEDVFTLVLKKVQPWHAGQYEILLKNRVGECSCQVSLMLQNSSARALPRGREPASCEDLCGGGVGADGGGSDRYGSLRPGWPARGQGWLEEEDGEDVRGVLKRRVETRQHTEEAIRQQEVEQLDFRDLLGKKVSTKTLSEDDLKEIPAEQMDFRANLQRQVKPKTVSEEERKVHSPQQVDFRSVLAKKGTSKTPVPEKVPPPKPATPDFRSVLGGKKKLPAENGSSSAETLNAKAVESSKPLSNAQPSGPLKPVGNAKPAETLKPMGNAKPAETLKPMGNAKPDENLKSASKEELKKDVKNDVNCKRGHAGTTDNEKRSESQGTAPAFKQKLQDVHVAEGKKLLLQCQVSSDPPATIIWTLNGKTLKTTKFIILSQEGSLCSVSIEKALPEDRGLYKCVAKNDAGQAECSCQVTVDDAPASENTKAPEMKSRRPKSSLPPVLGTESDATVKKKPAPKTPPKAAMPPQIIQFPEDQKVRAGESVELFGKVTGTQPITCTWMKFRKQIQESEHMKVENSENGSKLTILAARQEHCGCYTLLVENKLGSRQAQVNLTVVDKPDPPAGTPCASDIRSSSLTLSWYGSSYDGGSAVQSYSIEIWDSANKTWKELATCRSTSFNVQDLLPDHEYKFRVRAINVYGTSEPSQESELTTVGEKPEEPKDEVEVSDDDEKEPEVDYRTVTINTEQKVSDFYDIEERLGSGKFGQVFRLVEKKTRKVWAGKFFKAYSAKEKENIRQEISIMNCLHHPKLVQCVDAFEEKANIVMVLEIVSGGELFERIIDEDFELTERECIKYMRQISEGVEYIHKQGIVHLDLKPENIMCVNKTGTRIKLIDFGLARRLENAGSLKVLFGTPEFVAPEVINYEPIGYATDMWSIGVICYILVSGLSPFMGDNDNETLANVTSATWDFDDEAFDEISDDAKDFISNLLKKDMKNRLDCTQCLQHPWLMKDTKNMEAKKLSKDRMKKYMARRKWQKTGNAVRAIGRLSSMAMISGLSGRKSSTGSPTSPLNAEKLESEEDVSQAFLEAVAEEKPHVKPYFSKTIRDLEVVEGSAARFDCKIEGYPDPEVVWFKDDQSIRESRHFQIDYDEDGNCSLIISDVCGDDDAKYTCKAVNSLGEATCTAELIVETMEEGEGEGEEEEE
# UniProt Q15375, sequence (whole entry, looked up): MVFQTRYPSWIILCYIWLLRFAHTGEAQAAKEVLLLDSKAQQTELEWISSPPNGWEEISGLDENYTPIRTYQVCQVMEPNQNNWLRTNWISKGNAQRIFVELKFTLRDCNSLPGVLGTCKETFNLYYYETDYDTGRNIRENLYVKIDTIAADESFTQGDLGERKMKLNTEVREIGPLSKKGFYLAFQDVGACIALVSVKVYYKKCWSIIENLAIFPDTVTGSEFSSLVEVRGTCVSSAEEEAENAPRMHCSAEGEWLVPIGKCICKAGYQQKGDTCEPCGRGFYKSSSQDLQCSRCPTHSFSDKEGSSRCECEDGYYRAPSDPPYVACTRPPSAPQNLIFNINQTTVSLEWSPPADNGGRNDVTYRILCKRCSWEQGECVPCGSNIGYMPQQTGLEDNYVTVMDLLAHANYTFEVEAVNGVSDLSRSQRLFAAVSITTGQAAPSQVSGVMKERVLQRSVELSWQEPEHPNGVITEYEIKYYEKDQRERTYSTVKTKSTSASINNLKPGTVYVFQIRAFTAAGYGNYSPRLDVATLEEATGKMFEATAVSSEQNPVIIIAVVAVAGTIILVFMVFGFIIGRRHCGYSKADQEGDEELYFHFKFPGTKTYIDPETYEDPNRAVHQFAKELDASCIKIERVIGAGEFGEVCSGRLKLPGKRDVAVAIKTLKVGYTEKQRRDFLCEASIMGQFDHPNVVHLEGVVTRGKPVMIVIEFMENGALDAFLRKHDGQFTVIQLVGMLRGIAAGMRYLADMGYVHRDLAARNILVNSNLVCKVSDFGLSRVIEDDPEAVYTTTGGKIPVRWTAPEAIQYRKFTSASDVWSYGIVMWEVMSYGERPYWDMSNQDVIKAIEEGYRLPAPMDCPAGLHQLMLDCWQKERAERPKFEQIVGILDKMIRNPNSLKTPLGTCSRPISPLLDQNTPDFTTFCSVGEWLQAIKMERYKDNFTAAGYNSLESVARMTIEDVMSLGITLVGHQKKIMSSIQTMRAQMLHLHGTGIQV
# UniProt P25098, sequence (whole entry, looked up): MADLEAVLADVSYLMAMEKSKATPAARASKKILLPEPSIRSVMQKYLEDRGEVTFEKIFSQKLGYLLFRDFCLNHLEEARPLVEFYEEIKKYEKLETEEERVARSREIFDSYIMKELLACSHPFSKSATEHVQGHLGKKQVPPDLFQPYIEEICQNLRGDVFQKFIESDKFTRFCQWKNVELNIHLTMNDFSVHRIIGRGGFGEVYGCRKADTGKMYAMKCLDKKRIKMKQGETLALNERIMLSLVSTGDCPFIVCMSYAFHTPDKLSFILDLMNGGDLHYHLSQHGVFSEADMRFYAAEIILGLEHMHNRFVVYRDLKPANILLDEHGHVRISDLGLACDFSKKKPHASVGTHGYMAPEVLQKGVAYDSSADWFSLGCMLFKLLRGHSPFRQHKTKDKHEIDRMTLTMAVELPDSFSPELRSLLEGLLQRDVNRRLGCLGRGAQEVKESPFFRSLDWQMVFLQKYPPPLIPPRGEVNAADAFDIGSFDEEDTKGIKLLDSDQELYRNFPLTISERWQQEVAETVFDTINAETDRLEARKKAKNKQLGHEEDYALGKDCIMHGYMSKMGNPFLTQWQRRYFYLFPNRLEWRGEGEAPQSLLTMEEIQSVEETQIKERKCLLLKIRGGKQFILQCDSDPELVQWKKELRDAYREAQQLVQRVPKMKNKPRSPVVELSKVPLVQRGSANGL
# UniProt P28223, sequence (whole entry, looked up): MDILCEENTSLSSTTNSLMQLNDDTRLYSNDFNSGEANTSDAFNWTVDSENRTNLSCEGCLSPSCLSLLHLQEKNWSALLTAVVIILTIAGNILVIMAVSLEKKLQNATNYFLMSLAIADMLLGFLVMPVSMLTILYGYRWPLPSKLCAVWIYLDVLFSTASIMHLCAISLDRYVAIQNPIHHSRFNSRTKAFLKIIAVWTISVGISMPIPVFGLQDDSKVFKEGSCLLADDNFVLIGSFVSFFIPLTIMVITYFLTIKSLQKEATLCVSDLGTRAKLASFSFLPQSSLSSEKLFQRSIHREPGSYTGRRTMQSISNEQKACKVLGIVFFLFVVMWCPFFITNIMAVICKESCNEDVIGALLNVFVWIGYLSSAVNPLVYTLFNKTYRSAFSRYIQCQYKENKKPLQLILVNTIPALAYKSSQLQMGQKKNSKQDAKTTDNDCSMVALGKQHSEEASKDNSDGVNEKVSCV

# Set 1
# SMILES: Cc1cc(Nc2cc(N3CCN(C)CC3)nc(Sc3ccc(NC(=O)C4CC4)cc3)n2)[nH]n1
# Effect on: enzyme activity
# Mode: inhibitor
# Concentration: 0.5 µM
# Relative to: control
target,remaining activity
"NUAK1 (Homo sapiens, UniProt O60285)",18.5%
"RPS6KB1 (Homo sapiens, UniProt P23443)",96%
"GRK2 (Homo sapiens, UniProt P25098)",107%
"EPHB2 (Homo sapiens, UniProt P29323)",78.3%
"MYLK (Homo sapiens, UniProt Q15746)",97%
"EPHA7 (Homo sapiens, UniProt Q15375)",74.7%
"CSF1R (Homo sapiens, UniProt P07333)",106%
"PRKCG (Homo sapiens, UniProt P05129)",94.2%

# Set 2
# Host: human
# Matrix: microsomes or S9
# Concentration: 2 µM
# Time: 0.5 h
SMILES,remaining compound [%]
COc1cc(N2CCN(C(C)=O)CC2)ccc1Nc1ncc(Cl)c(Nc2ccc(N3CCN(S(C)(=O)=O)CC3)cc2OC)n1,0
N#Cc1cnn2c(O)cc(Cc3ccccc3)nc12,> 100
c1ccc(COc2ccc(-c3n[nH]cc3CN3CCNCC3)cc2)cc1,51.6
CN(CCOC(=O)c1ccc(C(C)(C)C)cc1)C1=NS(=O)(=O)c2ccccc21,< 1
COc1nccnc1Oc1cc(F)c(CN2CCCC2)c(Cl)c1,98.2
Cc1ccc(N2N3C(=O)OC4(C)CCC(C2(C)C)C34C)cc1 (stereo not shown),0.174
COc1ccc(C)cc1N(C)C(=O)c1cc2ccc3cccnc3c2[nH]1,0.306
Cc1ccc(S(=O)(=O)Nc2c(C)[nH]c(=O)[nH]c2=O)cc1,88.5

# Set 3
# Cell line: mouse MPNST tumor cells
# Method: high-content immunofluorescence imaging
# Refers to: nuclear SOX9
# Concentration: 10 µM
# Time: 12 h
# Setting: mean of 2 replicates
# Relative to: DMSO control
# Direction: higher = more nuclear SOX9
Compound,nuclear SOX9 intensity
Cc1cc2c(cc1C1(c3ccc(C(=O)O)cn3)CC1)C(C)(C)CCC2(C)C,93.8 % of DMSO
COc1ccc2c(c1)N(C[C@H](C)CN(C)C)c1ccccc1S2,190 % of DMSO
N/C(=N\C(=O)c1nc(Cl)c(N)nc1N)NCc1ccccc1,101 % of DMSO and 103 % of DMSO
C=C(C)[C@@H]1CC[C@]2(C(=O)O)CC[C@]3(C)[C@H](CC[C@@H]4[C@@]5(C)CC[C@H](O)C(C)(C)[C@@H]5CC[C@]43C)[C@@H]12,99.5 % of DMSO
CCCn1c(=O)c2[nH]c(-c3ccc(OCC(=O)O)cc3)nc2n(CCC)c1=O,95.4 % of DMSO
CN1CCN(C(c2ccccc2)c2ccccc2)CC1,109 % of DMSO
Cc1cccc(C)c1OCC(C)N (stereo not shown),97.5 % of DMSO and 103 % of DMSO
COc1ccc(-n2c(C)c([N+](=O)[O-])c3ccc(O)cc32)cc1,126 % of DMSO

# Other studies, line by line
Structure (SMILES),target,effect on,concentration,measurement,value
CN1CCN(c2ccnc(NCCc3ccccc3)n2)CC1,"5-hydroxytryptamine receptor 2A (HTR2A, Homo sapiens, UniProt P28223)",ligand displacement,10 µM,inhibition,72.9%
